Assay results gathered from unrelated publications.
Lines come from different studies, so protocols differ. ± gives the spread as reported.

Compound | assay | test system | setting | quantity | value
CC(C)C[C@H](NC(=O)[C@@H]1CCCN1C(=O)[C@H](CCCCN)NC(=O)[C@@H](N)CO)C(=O)N1CCC[C@H]1C(=O)N[C@@H](CCC(=O)O)C(=O)N[C@H](C(=O)N[C@H](C(=O)N[C@@H](CC(=O)O)C(=O)N[C@@H](CCC(=O)O)C(=O)N[C@@H](Cc1ccc(O)cc1)C(=O)NCC(=O)NCCOCCOCCOCCOCCC(=O)N[C@@H](CCCCNC(=O)CC[C@H](C(=O)O)N1CCN(CC(=O)O)CCN(CC(=O)O)CC1)C(=O)N1CCN(CCCN(C)c2ccc3nccc(C(=O)NCC(=O)N4CC(F)(F)C[C@H]4C#N)c3c2)CC1)[C@@H](C)O)C(C)C [copper-64 labelled] | PET | NMRI nude mouse, HT-1080 xenograft, hFAP-negative tumour | intravenous | SUVmean | 0.82 ± 0.13 SUV
CC[C@H](C)[C@@H]([C@@H](CC(=O)N1CCC[C@H]1[C@H](OC)[C@@H](C)C(=O)N[C@H](C)[C@@H](O)c1ccccc1)OC)N(C)C(=O)[C@@H](NC(=O)[C@H](C(C)C)N(C)C(=O)OCc1ccc(NC(=O)[C@H](CCCNC(N)=O)NC(=O)[C@@H](NC(=O)CCCCCN2C(=O)CC(SC[C@H](NC(=O)[C@H](CC(=O)O)NC(=O)[C@H](Cc3ccc(O)cc3)NC(=O)[C@H](Cc3c[nH]c4ccccc34)NC(=O)[C@@H](N)CCCNC(=N)N)C(=O)O)C2=O)C(C)C)cc1)C(C)C (stereo partly shown) |  | C57BL/6 mouse, healthy, spleen | intraperitoneal, 2.5 mg/kg, 1 h | concentration | not detected
CC(C)C[C@H](NC(=O)[C@@H](N)Cc1ccccc1)C(=O)N[C@@H](C)C(=O)N[C@H]1CSCc2cccc(n2)CSC[C@@H](C(=O)N[C@H](C(=O)NCC(=O)N[C@@H](CO)C(=O)N[C@@H](Cc2c[nH]c3ccccc23)C(=O)N[C@@H](CCCCNC(=O)CN2CCN(CC(=O)O)CCN(CC(=O)O)CCN(CC(=O)O)CC2)C(N)=O)[C@@H](C)O)NC(=O)[C@H](Cc2c[nH]cn2)NC(=O)[C@H]([C@@H](C)O)NC(=O)[C@H](CCC(=O)O)NC(=O)[C@@H]2CCCN2C1=O [lutetium-177 labelled] | radio-HPLC | PBS | 2 h, 37 °C | intact fraction | > 99%
Cc1ncsc1-c1ccc(CNC(=O)[C@@H]2C[C@@H](OC(=O)OCCSSCCn3cc(CCCC(=O)N[C@@H](Cc4ccc(O)cc4)C(=O)N[C@@H](CCCNC(=N)N)C(=O)N[C@@H](CCCNC(=N)N)C(=O)N[C@@H](CCCNC(=N)N)C(=O)N[C@@H](CCCNC(=N)N)C(=O)N[C@@H](CCCNC(=N)N)C(=O)N[C@@H](CCCNC(=N)N)C(=O)N[C@@H](CCCNC(=N)N)C(=O)N[C@@H](CCCNC(=N)N)C(=O)N[C@@H](CCCNC(=N)N)C(N)=O)nn3)CN2C(=O)[C@@H](NC(=O)COCCOCCOCCNC(=O)C[C@@H]2N=C(c3ccc(Cl)cc3)c3c(sc(C)c3C)-n3c(C)nnc32)C(C)(C)C)cc1 | UHPLC-UV | RPMI medium with 10% FBS | 0 h, 37 °C | remaining compound | 100%
CC(=O)N[C@@H](CC(C)C)C(=O)N[C@H](C(=O)N[C@@H](Cc1ccccc1)C(=O)N[C@]1(C)CCCCCC/C=C/CCC[C@@](C)(C(=O)N[C@@H](C)C(=O)N[C@@H](C)C(=O)N[C@@H](C)C(=O)N[C@@H](C)C(=O)N[C@@H](C)C(=O)N[C@H](C)C(N)=O)NC(=O)[C@H](CC(C)C)NC(=O)[C@H](CCCCNC(=O)CCNC(=O)C[C@@H]2N=C(c3ccc(Cl)cc3)c3c(sc(C)c3C)-n3c(C)nnc32)NC(=O)[C@H](C)NC(=O)[C@H](Cc2c[nH]c3ccccc23)NC(=O)[C@H](Cc2ccc(O)cc2)NC(=O)[C@H](C)NC1=O)[C@@H](C)O |  | C57BL/6J mice, male, plasma | intravenous, 10 mg/kg, 5% DMSO, PEG400, Tween-80, methylcellulose | Cmax | 31.2 µM
CCCCCCCCCCCCCCC(=O)N[C@@H](CCCCNC(=O)CN1CCN(CC(=O)O)CCN(CC(=O)O)CCN(CC(=O)O)CC1)C(=O)NCCCC[C@@H]1NC(=O)[C@@H](Cc2ccccc2)NC(=O)[C@H](CC(=O)O)NC(=O)CNC(=O)[C@H](CCCNC(=N)N)NC1=O [actinium-225 labelled] |  | BxPC-3 xenograft mice, blood | dose not given, end of study | BUN and creatinine levels | no effect
CCCC[C@H](NC(=O)CN1CCC(NC(=S)Nc2ccc(C[C@H]3CN(CC(N)=O)CCN(CC(N)=O)CCN(CC(N)=O)CCN3CC(N)=O)cc2)CC1)C(=O)N[C@H]1CC(=O)NCCCC[C@@H](C(N)=O)NC(=O)[C@H](Cc2c[nH]c3ccccc23)NC(=O)[C@H](CCCNC(=N)N)NC(=O)[C@@H](Cc2ccccc2)NC(=O)[C@H](Cc2c[nH]cn2)NC1=O [lead-203 labelled] |  | male C57BL/6J mice B16-F10 tumour, tumour | intravenous, 20 pmol, 2 h | tissue uptake | 1.68 ± 0.26 %ID/g
CC(C)C[C@H](NC(=O)[C@@H]1CCCN1C(=O)[C@H](CCCCN)NC(=O)[C@@H](N)CO)C(=O)N1CCC[C@H]1C(=O)N[C@@H](CCC(=O)O)C(=O)N[C@H](C(=O)N[C@H](C(=O)N[C@@H](CC(=O)O)C(=O)N[C@@H](CCC(=O)O)C(=O)N[C@@H](Cc1ccc(O)cc1)C(=O)NCC(=O)NCCOCCOCCOCCOCCOCCOCCOCCOCCOCCOCCOCCOCCOCCOCCOCCOCCOCCOCCOCCOCCOCCOCCOCCOCCC(=O)N[C@@H](CCCCNC(=O)CC[C@H](C(=O)O)N1CCN(CC(=O)O)CCN(CC(=O)O)CC1)C(=O)N1CCN(CCCN(C)c2ccc3nccc(C(=O)NCC(=O)N4CC(F)(F)C[C@H]4C#N)c3c2)CC1)[C@@H](C)O)C(C)C [copper-64 labelled] | PET | NMRI nude mouse, HT-1080 hFAP xenograft, tumour | intravenous, maximum tumour uptake | SUVmean | 2.1 SUV
CCCC[C@H](NC(=O)CN1CCC(NC(=O)CN2CCN(CC(N)=O)CCN(CC(N)=O)CCN(CC(N)=O)CC2)CC1)C(=O)N[C@H]1CC(=O)NCCCC[C@@H](C(N)=O)NC(=O)[C@H](Cc2c[nH]c3ccccc23)NC(=O)[C@H](CCCNC(=N)N)NC(=O)[C@@H](Cc2ccccc2)NC(=O)[C@H](Cc2c[nH]cn2)NC1=O [lead-212 labelled] |  | male C57BL/6J mice, B16-F10 tumour, blood | intravenous, 20 pmol, 2 h, ex vivo | tissue uptake | < 1 %IA/g
N=C(N)NCCC[C@@H]1NC(=O)[C@H](CCCCNC(=O)CCC(NC(=S)Nc2ccc(CC3CN(CC(=O)O)CCN(CC(=O)O)CCN(CC(=O)O)CCN3CC(=O)O)cc2)C(=O)NCCCC[C@@H]2NC(=O)[C@@H](Cc3ccc(O)cc3)NC(=O)[C@H](CC(=O)O)NC(=O)CNC(=O)[C@H](CCCNC(=N)N)NC2=O)NC(=O)[C@@H](Cc2ccc(O)cc2)NC(=O)[C@H](CC(=O)O)NC(=O)CNC1=O (stereo partly shown) [scandium-44 labelled] | ex vivo γ-counting | female athymic nude mice, U-87 MG xenograft, lung | intravenous, 4 h | tissue uptake | 0.44 ± 0.23 %ID/g

Repeated from above:
Compound | assay | test system | setting | quantity | value
CCCCCCCCCCCCCCC(=O)N[C@@H](CCCCNC(=O)CN1CCN(CC(=O)O)CCN(CC(=O)O)CCN(CC(=O)O)CC1)C(=O)NCCCC[C@@H]1NC(=O)[C@@H](Cc2ccccc2)NC(=O)[C@H](CC(=O)O)NC(=O)CNC(=O)[C@H](CCCNC(=N)N)NC1=O [actinium-225 labelled] |  | BxPC-3 xenograft mice, blood | dose not given, end of study | BUN and creatinine levels | no effect
